# Published values of several laboratories.
# Compare with care: the assays were run in different laboratories. Values joined by “and” are separate records of one study, mostly repeats; a detail may differ. ± marks the error that the study gave.
# NCEH1: Neutral cholesterol ester hydrolase 1 (NCEH1, Homo sapiens, UniProt Q6PIU2)
SMILES,target,assay,test system,setting,how to read,quantity,value
COc1ccc(N2C(=O)N(c3c(C)cccc3Cl)Cc3cnc(Nc4ccc(C5CCN(C)CC5)cc4OC)nc32)nc1,"Tyrosine-protein kinase BTK (BTK, Homo sapiens, UniProt Q06187)",kinase activity,,0.5 µM,,inhibition,95%
CC[N+]1(CC)CCN(c2ccccc2C)CC1,"Nicotinic acetylcholine receptor alpha1/beta1/epsilon/delta (Mus musculus, UniProt P02716+P04756+P09690+P20782)","ion current, inhibitor, two-electrode voltage clamp",Xenopus oocytes,"30 µM, after co-application, unit not given, with: ACh 30 µM",baseline: ACh alone,ACh response,0.668 ± 0.463
CN(C(=O)n1cnc(-c2ccc[n+]([O-])c2)c1)C1CCCCC1,"Calcium/calmodulin-dependent protein kinase type IV (CAMK4, Homo sapiens, UniProt Q16566)",enzyme activity,,"50 µM, with: autocamtide-2",,inhibition,1%
Nc1ncc(-c2nc(N3CCOCC3)nc(N3CCOCC3)n2)c(C(F)F)n1,"Transient receptor potential cation channel subfamily M member 6 (TRPM6, Homo sapiens, UniProt Q9BX84)",KINOMEscan,,10 µM,baseline: control,remaining binding,59%
COc1cc(F)cc(NS(=O)(=O)c2ccc(S(=O)(=O)F)c3c2CCCC3)c1,"RALB (Homo sapiens, UniProt P11234, Y82F)","inhibitor, BODIPY-FL-GDP exchange",,"concentration not given, 24 h, 4 °C, with: Rgl2",,nucleotide exchange,no inhibition
O=C(c1ccc(Cl)cc1)N1CCN2C(=O)N(OC(=O)N3CCOc4ccccc43)C(=O)C2C1 (stereo not shown),NCEH1,"enzyme activity, inhibitor, MS-based ABPP",SW-620 conditioned medium,"10 µM, 1 h, 37 °C","baseline: compound over DMSO, lower = stronger inhibition",median ratio,0.94
COC(=O)[C@@]1(O)C[C@H]2O[C@]1(C)n1c3ccccc3c3c4c(c5c6ccccc6n2c5c31)C(=O)NC4,"Mitogen-activated protein kinase 3 (MAPK3, Homo sapiens, UniProt P27361)",ADP-Glo,,"1.38 nM, with: MBP substrate",,kinase activity,102% and 95.9% and 69.1%
Oc1c(Cl)cc(-c2ccc(F)cc2)cc1Cl,"Sulfotransferase 2A1 (SULT2A1, Homo sapiens, UniProt Q06520)",substrate,,"pH 7.0, 37 °C, with: PAPS 200 µM",,Vmax,30 nmol/min/mg and 29.7 nmol/min/mg
CN1CCN(c2cc(-c3ccncc3)c(-c3ccc4ccccc4c3)nn2)CC1,"Substance-K receptor (TACR2, Homo sapiens, UniProt P21452)","agonist, FLIPR",,12.5 µM,,activation,8.6%
Clc1ccc(COc2ccccc2CNCc2ccncc2)cc1,"Aminoglycoside N(3)-acetyltransferase IV (aacC4, Salmonella sp, UniProt P08988)","neomycin acetylation, inhibitor",,with: neomycin,,highest concentration without inhibition,> 200 µM
C[C@H]1COCCN1c1nc(NCc2cccnc2C(F)(F)F)c2cccnc2n1,"Adenosine receptor A2a (ADORA2A, Homo sapiens, UniProt P29274)",binding,,CEREP panel,,IC50,> 100 µM
COc1ccc(F)cc1C(=O)NCc1ccc(-c2nn([C@@H](C)C(F)(F)F)c(N)c2C(N)=O)cc1,"Tyrosine-protein kinase Fyn (FYN, Homo sapiens, UniProt P06241)","target engagement, NanoBRET",HEK293,,baseline: FYN over BTK,selectivity ratio,> 7600
[2H]c1c([2H])c([C@]2([2H])CCCN2C(=O)C(C)(C)Oc2ccc3cn[nH]c3c2)c([2H])c([2H])c1C([2H])([2H])[2H],"Serine/threonine-protein kinase SIK1 (SIK1, Homo sapiens, UniProt P57059)",KINOMEscan,,1 µM,baseline: DMSO control,remaining binding,94%
C[C@H]1CN(c2n[nH]c3nc(N[C@H]4CC[C@H](NS(=O)(=O)CCC(F)(F)F)CC4)ncc23)CCO1,"Ephrin type-A receptor 3 (EPHA3, Homo sapiens, UniProt P29320)","inhibitor, Kinobeads competition profiling",,0.8 µM,baseline: vehicle,relative abundance,1.03
C#CCCCCNC(=O)CI,NCEH1,mass spectrometry profiling,Ramos cell lysate,"100 µM over 10 µM, UniProt Q6PIU2",baseline: high over low concentration,reactivity ratio,1.3
N[C@@H](CCC(=O)O)C(=O)O,"Glutamate-gated chloride channel alpha (glc-1, Caenorhabditis elegans, UniProt G5EBR3)","ion current, agonist, two-electrode voltage clamp",Xenopus oocytes,0.1 to 100 mM,,inward current,74 ± 46 nA

# Some of these lines once more:
SMILES,target,assay,test system,setting,how to read,quantity,value
COC(=O)[C@@]1(O)C[C@H]2O[C@]1(C)n1c3ccccc3c3c4c(c5c6ccccc6n2c5c31)C(=O)NC4,"Mitogen-activated protein kinase 3 (MAPK3, Homo sapiens, UniProt P27361)",ADP-Glo,,"1.38 nM, with: MBP substrate",,kinase activity,102% and 95.9% and 69.1%
Nc1ncc(-c2nc(N3CCOCC3)nc(N3CCOCC3)n2)c(C(F)F)n1,"Transient receptor potential cation channel subfamily M member 6 (TRPM6, Homo sapiens, UniProt Q9BX84)",KINOMEscan,,10 µM,baseline: control,remaining binding,59%
